Values quoted from earlier work, collected from citations in different studies.
Numbered parts are unrelated; values within a part may stem from several laboratories. Values joined by “and” are separate records of one study, mostly repeats; a detail may differ. ≈ marks a conversion by molar mass, not a printed value.

Block 1
Organism: Cryptosporidium parvum
Technique: high-throughput screen
Concentration: concentration not given
| SMILES | activity |
| --- | --- |
| c1ccc2c(c1)Nc1ccccc1S2 | inactive |
| c1ccc(Cn2ccnc2)cc1 | inactive |
| FC(F)(F)c1cccc(N2CCNCC2)c1 | inactive |
| Oc1ccc2c3c1O[C@H]1[C@@H](O)CC[C@@]4(O)[C@@H](C2)N(CC2CCC2)CC[C@]314 | inactive |
| CCN(CC)CCOC(=O)C(O)(c1ccccc1)c1ccccc1.Cl | inactive |
| c1ccc2c3c([nH]c2c1)CNCC3 | inactive |
| CC[C@@H](C(N)=O)N1CCCC1=O | inactive |
| COc1ccc(CCN)cc1OC | inactive |
| C[C@H]1CCC[C@H](O)CCCCCc2cc(O)cc(O)c2C(=O)O1 | inactive |
| c1cncc([C@@H]2CCCN2)c1 | inactive |
| CC(C)CC(N(C)C)C1(c2ccc(Cl)cc2)CCC1 (centres unmarked) | inactive |
| CCN(C(C)=O)c1cccc(-c2ccnc3c(C#N)cnn23)c1 | inactive |
| CC(C)N(CCC(C(N)=O)(c1ccccc1)c1ccccn1)C(C)C (centres unmarked) | inactive |

Block 2
SMILES: OCCN1CCN(CCC=C2c3ccccc3Sc3ccc(C(F)(F)F)cc32)CC1
Cell line: MCF7
Technique: microarray
Concentration: concentration not given
Reference: DMSO
| measured | log2 fold change |
| --- | --- |
| TNFAIP3 mRNA | 0.96 |
| SLC7A11 mRNA | 0.99 |
| TSC22D3 mRNA | 1.23 |
| UPP1 mRNA | 1.18 |
| TRAF5 mRNA | 1.12 |
| ZNF292 mRNA | 1.17 |

Further values, each from its own experiment
| Compound | target or system | test | test system | conditions | measurement | result |
| --- | --- | --- | --- | --- | --- | --- |
| O=C(NCc1ncc(-c2ccc(Br)cc2)[nH]1)Nc1ncc(Sc2ccccn2)s1 | Streptococcus pneumoniae FabK | inhibitor | – | – | IC50 | 0.0024 µM |
| CC[C@H](C)CCCCC(=O)N[C@@H](CCN)C(=O)N[C@H](C(=O)N[C@@H](CCN)C(=O)N[C@H]1CCNC(=O)[C@H]([C@@H](C)O)NC(=O)[C@H](CCN)NC(=O)[C@H](CCN)NC(=O)[C@H](CC(C)C)NC(=O)[C@@H](CC(C)C)NC(=O)[C@H](CCN)NC1=O)[C@@H](C)O | – | nephrotoxicity risk | patients, plasma | – | plasma concentration threshold | > 2500 ng/mL |
| COC(=O)[C@@H]1C[C@H](OC(C)=O)C(=O)[C@H]2[C@@]1(C)CC[C@H]1C(=O)O[C@H](c3ccoc3)C[C@]21C | kappa opioid receptor V108A/V118K | – | – | – | Ki | > 5 µM |
| CCCSc1ccc2nc(NC(=O)OC)[nH]c2c1 | – | – | – | pH 4.1 | solubility | ~2 µg/mL (≈ 7.54 µM) |
| Cn1cc2cc(C(F)(F)c3nnc4ccc(-c5cnn(C6CC6)c5)nn34)c(F)cc2n1 | – | – | human, MET-altered NSCLC patients | dose not given, phase I | disease control rate | 94.4% |
| N[C@@H]1C[C@H]1c1ccccc1 | tyramine oxidase (Arthrobacter sp.) | – | – | pH 7.2 | IC50 | 35 µM and 33 µM |
| CCCCC1(C2CCCC2)Cc2cc(OCCCC(=O)O)c(Cl)c(Cl)c2C1=O (centres unmarked) | – | – | – | – | logP | 6.8 |

For quick reference, copied from above (block 1):
| SMILES | activity |
| --- | --- |
| FC(F)(F)c1cccc(N2CCNCC2)c1 | inactive |
| c1cncc([C@@H]2CCCN2)c1 | inactive |
| CC(C)CC(N(C)C)C1(c2ccc(Cl)cc2)CCC1 (centres unmarked) | inactive |
| CC(C)N(CCC(C(N)=O)(c1ccccc1)c1ccccn1)C(C)C (centres unmarked) | inactive |
